Assay results gathered from unrelated publications.
“And” joins repeats or separate records; there may be more than shown.

COc1ccc(C2CC(=O)c3c(cc(O)c(CC=C(C)C)c3O)O2)cc1 (stereo not drawn)  inhibition (HeLa; cell growth or viability, MTT; 50 µM, 48 h): 22%
CC(=O)N1C[C@H](O)C[C@H]1C(=O)N[C@@H](CC(C)C)C(=O)N[C@@H](C)C(=O)N[C@@H](CC(=O)O)C(=O)COC(=O)c1c(C)cccc1C  cell lysis (THP-1 cells, LPS-primed; pyroptosis, LDH release; 25 µM, LPS 1 µg/mL, 4 h, together with: nigericin 5 µM, 2 h): 88.5%
Cc1ncsc1-c1ccc(C(C)NC(=O)C2CC(O)CN2C(=O)C(NC(=O)CCCCCCCCCCN2CCCC(Nc3ncc(Cl)c(Nc4ccccc4S(=O)(=O)C(C)C)n3)C2)C(C)(C)C)cc1 (stereo not drawn)  log2 fold change (22Rv1; RNA-seq, refers to: NCK1-DT; concentration not given; reference: DMSO): -1.92
CCc1c(-c2ccc3[nH]ncc3c2)cnc(N)c1-c1ccc(O)cc1  viability (CHP-212 resistant sublines, USP7 V517F heterozygous; 6.25 µM): 109%
CCC(=CCc1c(O)cc2c(c1O)C(=O)CC(c1cccc(O)c1OC)O2)CC (stereo not drawn)  inhibition (HeLa; cell growth or viability, MTT; 3.125 µM, 48 h): 3.26%
Cn1ncc2cc(-c3cncc(Cl)c3N3CCC4(CCNC4=O)CC3)ccc21  log2 fold change (LS174T; gene expression, microarray, refers to: RNF183 mRNA; concentration not given, 4 h; reference: untreated cells): -1.33
CN1CCN(C(=O)c2cn(C34CCCC(C)(CCC5C3CC5(C)C)C4)nn2)CC1 (stereo not drawn)  inhibition (HT-29; cell growth or viability, CCK-8; 50 µM): 86%
O=C(C[Se]C(=O)c1ccccc1Nc1cccc(C(F)(F)F)c1)Nc1cccc(C(F)(F)F)c1  mean growth percent (NCI60 leukemia subpanel; cell growth; 10 µM, 48 h, one-dose): -75.5%
COc1ccc(CNC[C@@](O)(COCc2ccccc2)[C@@H]2CC[C@@H](C)C[C@H]2OCc2ccccc2)cc1  inhibition (HeLa; cell growth or viability, MTT; 30 µM, 72 h): 95.4%
COc1ccccc1-c1ccncc1C(=O)Nc1nnc(OCc2ccc(Cl)cc2)s1  colony count (MDA-MB-231; 6 µM, single replicate): 32 and 34 and 23 and 19
CC(C)c1ccc(N(C)c2ccc3c(c2)OCC[C@H]3CNc2cnccc2C(=O)O)cc1  IC50 (TE-6; cell growth or viability, ATP luminescence; 7 days): 6.68 nM
CCN(CC)CC(=O)Nc1cccc(-n2cc(-c3ccc4ccc(-c5cn(-c6cccc(NC(=O)CN(CC)CC)c6)nn5)cc4c3)nn2)c1  fold regulation (RCC4; PCR angiogenesis array, refers to: PECAM1; 5 x IC50, 6 h, normoxia; reference: untreated): 1.03
CC12CCCC(n3cc(C(=O)N4CCC(O)CC4)nn3)(C1)C1CC(C)(C)C1CC2 (stereo not drawn)  inhibition (HT-29; cell growth or viability, CCK-8; 10 µM): < 50%
CCC(CC)Nc1ncc2c(/C=C/C(=O)N3CCC(OC)CC3)nn(Cc3cccc(C(F)(F)F)c3)c2n1  EC50 (OE33; cell growth or viability, resazurin; 5 days): > 30000 nM
O=S(=O)(N[C@H]1CCO[C@@H](C2c3ccc(F)cc3CCc3cc(F)ccc32)C1)c1ccc(OC(F)(F)F)cc1  protein level (D425; immunoblot, refers to: CCL2; concentration not given): decreased
CN1CCCNC(=O)c2cccc(c2)C(=O)NCCCN(C)CCCNc2cccc3c2C(=O)c2cccc(c2C3=O)NCCC1  log2 fold change (SAS; RNA-Seq, refers to: DDX50 mRNA; 1 µM, 6 h; reference: untreated cells): -0.719
CNS(=O)(=O)Nc1nccc(Cc2c(C)c3ccc(Oc4ncccc4F)cc3oc2=O)c1F  IC50 (NCI-H3255; cell viability; 7 days): > 1000 nM
COc1cc(N2CCN(C(=O)C3CCCN3)CC2)ccc1Nc1ncc(Cl)c(Nc2ccccc2P(C)(C)=O)n1 (stereo not drawn)  late apoptotic cells (Ba/F3 EML4-ALK; annexin V flow cytometry; concentration not given, 0.5 h): 2.7%

Some of these lines once more:
CN1CCN(C(=O)c2cn(C34CCCC(C)(CCC5C3CC5(C)C)C4)nn2)CC1 (stereo not drawn)  inhibition (HT-29; cell growth or viability, CCK-8; 50 µM): 86%
CCC(=CCc1c(O)cc2c(c1O)C(=O)CC(c1cccc(O)c1OC)O2)CC (stereo not drawn)  inhibition (HeLa; cell growth or viability, MTT; 3.125 µM, 48 h): 3.26%
